Published values pooled from the literature.
Numbered parts are unrelated; each lists some results of a single study.
Sequence of UniProt Q15759 (whole entry, looked up): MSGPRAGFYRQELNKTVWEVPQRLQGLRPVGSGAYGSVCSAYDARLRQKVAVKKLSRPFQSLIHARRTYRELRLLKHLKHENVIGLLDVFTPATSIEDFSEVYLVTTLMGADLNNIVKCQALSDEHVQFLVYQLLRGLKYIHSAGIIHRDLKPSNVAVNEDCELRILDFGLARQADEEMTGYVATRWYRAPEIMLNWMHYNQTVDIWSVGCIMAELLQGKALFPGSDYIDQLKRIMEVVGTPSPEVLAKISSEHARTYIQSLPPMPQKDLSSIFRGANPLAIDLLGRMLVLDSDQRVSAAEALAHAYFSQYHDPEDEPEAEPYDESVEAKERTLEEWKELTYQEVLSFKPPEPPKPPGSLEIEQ
Sequence of UniProt Q9P289 (whole entry, looked up): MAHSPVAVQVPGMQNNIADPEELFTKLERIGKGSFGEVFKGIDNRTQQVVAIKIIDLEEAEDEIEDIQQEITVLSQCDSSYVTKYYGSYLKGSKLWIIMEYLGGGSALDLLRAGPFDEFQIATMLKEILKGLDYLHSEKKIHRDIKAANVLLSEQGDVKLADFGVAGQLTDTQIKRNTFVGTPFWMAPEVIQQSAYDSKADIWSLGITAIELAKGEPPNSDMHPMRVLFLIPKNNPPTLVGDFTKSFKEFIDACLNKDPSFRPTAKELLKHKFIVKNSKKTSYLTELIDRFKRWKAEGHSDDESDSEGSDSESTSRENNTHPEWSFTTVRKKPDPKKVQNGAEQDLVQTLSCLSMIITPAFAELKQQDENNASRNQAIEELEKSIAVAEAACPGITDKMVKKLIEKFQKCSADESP
Sequence of UniProt Q9Y3S1 (whole entry, looked up): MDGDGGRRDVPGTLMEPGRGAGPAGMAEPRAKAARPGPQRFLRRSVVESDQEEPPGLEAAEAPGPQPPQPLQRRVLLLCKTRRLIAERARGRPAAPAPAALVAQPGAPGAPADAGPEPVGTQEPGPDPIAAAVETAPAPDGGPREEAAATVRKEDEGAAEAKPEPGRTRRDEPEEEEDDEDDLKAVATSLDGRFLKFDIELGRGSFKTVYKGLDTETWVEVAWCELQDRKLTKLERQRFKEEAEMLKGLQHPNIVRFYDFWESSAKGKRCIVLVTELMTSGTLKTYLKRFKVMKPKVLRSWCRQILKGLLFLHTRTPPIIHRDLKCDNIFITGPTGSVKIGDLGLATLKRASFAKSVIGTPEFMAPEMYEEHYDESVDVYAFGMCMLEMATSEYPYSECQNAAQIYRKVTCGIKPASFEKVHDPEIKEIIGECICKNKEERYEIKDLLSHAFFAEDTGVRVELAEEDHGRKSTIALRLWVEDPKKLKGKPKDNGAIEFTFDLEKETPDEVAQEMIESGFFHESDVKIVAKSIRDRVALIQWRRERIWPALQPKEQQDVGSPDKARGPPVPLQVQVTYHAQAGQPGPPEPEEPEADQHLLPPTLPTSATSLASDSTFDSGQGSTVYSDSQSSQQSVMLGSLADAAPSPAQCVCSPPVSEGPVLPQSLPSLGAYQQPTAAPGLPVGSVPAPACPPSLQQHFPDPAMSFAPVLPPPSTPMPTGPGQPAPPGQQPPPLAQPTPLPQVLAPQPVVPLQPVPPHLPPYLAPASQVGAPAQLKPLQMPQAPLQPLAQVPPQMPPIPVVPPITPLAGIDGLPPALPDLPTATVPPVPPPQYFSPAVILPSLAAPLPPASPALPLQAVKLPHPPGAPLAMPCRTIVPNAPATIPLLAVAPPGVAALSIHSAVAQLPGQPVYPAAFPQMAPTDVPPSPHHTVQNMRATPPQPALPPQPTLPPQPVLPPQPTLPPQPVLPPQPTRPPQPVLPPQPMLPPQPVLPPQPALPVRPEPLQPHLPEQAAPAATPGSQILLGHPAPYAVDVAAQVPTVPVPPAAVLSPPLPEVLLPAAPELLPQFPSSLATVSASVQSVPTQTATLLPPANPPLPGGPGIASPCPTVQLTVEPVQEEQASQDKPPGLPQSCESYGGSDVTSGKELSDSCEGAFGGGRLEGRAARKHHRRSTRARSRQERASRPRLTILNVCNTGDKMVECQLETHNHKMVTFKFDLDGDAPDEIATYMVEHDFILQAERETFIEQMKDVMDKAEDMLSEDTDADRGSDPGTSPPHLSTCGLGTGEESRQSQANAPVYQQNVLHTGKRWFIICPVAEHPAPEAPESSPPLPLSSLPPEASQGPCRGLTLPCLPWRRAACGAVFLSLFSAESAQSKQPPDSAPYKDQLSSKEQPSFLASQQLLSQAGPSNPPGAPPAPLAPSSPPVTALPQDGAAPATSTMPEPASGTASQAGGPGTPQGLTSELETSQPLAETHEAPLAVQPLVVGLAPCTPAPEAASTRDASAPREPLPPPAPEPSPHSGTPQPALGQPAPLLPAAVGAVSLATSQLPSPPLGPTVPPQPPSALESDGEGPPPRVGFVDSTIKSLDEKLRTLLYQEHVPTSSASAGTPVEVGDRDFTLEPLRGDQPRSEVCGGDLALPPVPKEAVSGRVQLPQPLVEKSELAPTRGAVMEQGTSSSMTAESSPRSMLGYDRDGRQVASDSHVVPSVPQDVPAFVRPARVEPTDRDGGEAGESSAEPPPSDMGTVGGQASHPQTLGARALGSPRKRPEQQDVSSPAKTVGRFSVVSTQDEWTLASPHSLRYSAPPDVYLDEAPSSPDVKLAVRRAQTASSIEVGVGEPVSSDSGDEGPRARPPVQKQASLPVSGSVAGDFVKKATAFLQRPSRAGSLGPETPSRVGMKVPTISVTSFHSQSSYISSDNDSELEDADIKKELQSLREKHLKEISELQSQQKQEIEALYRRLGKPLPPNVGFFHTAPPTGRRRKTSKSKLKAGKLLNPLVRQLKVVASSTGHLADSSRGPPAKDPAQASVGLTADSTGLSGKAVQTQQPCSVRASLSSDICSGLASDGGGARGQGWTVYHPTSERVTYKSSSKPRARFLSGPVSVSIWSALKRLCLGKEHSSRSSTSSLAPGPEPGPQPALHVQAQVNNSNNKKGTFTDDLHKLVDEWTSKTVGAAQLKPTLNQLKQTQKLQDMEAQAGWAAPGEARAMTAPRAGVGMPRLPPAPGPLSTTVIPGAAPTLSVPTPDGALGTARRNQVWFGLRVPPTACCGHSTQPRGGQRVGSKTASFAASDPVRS
Sequence of UniProt P51451 (whole entry, looked up): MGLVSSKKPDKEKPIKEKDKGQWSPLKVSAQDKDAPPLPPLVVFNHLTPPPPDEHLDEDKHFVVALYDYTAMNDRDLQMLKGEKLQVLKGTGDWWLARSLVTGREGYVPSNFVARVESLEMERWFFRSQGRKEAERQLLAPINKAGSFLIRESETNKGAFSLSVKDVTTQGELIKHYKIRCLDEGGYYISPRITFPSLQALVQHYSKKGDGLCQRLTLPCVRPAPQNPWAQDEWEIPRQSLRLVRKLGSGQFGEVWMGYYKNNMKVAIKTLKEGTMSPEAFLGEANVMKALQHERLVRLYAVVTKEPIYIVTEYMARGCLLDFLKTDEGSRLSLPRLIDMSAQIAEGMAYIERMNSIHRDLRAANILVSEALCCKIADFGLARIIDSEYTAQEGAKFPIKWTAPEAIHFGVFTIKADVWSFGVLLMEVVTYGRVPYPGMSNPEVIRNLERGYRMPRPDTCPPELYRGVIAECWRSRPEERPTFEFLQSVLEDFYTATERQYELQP

Set 1
Target: Beta-1 adrenergic receptor (ADRB1, Homo sapiens, UniProt P08588)
Sequence of UniProt P08588 (whole entry, looked up): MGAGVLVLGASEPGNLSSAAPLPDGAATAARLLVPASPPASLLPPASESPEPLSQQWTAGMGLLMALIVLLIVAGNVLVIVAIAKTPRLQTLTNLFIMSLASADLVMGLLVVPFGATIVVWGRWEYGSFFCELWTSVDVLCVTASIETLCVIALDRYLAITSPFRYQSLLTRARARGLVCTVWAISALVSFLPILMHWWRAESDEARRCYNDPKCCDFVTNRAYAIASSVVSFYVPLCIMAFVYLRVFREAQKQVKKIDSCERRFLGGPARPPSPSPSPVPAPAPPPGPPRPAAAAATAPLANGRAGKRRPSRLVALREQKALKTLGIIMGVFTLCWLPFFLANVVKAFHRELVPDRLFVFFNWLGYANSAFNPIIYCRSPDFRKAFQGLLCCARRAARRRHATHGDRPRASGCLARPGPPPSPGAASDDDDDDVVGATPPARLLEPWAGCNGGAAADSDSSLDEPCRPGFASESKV
Mode: antagonist
Compound | IC50 [µM]
COc1cc(CNCCC(C)C)ccc1OCC(O)CN1CCSCC1 (centres unmarked) | ≥ 100
Cn1cc(-c2cnc(Nc3ccc(N4CCOCC4)cc3)c3c2CCO3)cn1 | ≥ 100
C=CCNC(=O)[C@@H]1Cc2cn(CC#CC)c3cccc(c23)[C@H](CC(C)C)N1 | ≥ 100
COc1ccc2c(CSc3nncn3-c3ccccc3)cc(=O)oc2c1 | ≥ 100
CC(=O)Oc1ccc2cc(-c3nc4c(s3)CCc3ccccc3-4)c(=O)oc2c1 | ≥ 100
Cn1ccnc1C(O)c1cc2n(n1)CCN(c1ncnc3[nH]cnc13)C2 (centres unmarked) | ≥ 100
COc1ccccc1N1CCN(CC[C@H]2CN(C(=O)NC(C)C)CC[C@H]2CC(=O)O)CC1 | ≥ 100
O=C(c1nc(-c2ccccc2)cc2[nH]ccc12)N1CCOCC1 | ≥ 100
COc1ccc(CN[C@H]2[C@H](O)[C@@H](N3CCN(c4ccccc4OC)CC3)[C@@H]3OC[C@H]2O3)cc1 | ≥ 100

Set 2
Target: Calcium/calmodulin-dependent protein kinase type II subunit alpha (CAMK2A, Homo sapiens, UniProt Q9UQM7)
Sequence of UniProt Q9UQM7 (whole entry, looked up): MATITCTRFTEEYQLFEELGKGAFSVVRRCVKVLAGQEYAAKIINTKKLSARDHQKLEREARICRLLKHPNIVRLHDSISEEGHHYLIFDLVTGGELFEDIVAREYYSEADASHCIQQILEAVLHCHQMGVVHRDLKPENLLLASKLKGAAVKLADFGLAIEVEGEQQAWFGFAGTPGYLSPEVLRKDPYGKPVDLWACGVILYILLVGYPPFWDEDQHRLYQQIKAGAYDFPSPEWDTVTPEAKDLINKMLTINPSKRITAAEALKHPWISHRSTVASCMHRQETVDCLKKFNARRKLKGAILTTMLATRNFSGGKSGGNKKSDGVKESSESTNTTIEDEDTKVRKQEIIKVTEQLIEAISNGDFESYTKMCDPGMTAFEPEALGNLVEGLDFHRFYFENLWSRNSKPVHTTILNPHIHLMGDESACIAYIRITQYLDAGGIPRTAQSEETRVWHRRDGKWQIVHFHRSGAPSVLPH
Observed: enzyme activity
Mode: inhibitor
Concentration: 10 µM
SMILES | inhibition
COc1cccc(CCc2cc(O)cc(OC)c2)c1 | -42%
CC(=O)NCCC(=O)O | -8%
CCCCC1(CCCC)CN(c2ccccc2)c2cc(SC)c(OCC(=O)N[C@@H](C(=O)N[C@@H](CC)C(=O)O)c3ccc(O)cc3)cc2S(=O)(=O)N1 | -3%
CCCC[C@H](C)C[C@H](O)/C=C/[C@H]1[C@H](O)CC(=O)[C@@H]1CCCC/C=C/C(=O)O | -6%
CCC(C(=O)O)c1ccc(N2Cc3ccccc3C2=O)cc1 (centres unmarked) | -2%
OC[C@H]1O[C@@H](Oc2cc3c(O)cc(O)cc3[o+]c2-c2ccc(O)c(O)c2)[C@H](O[C@@H]2OC[C@@H](O)[C@H](O)[C@H]2O)[C@@H](O)[C@@H]1O | 8%
CO[C@@H]1[C@@H](O[C@@H]2O[C@H](C)[C@@H](O[C@H]3C[C@@](C)(O)[C@@H](O)[C@H](C)O3)[C@H](N(C)C)[C@H]2O)[C@@H](CC=O)C[C@@H](C)[C@@H](O[C@H]2CC[C@H](N(C)C)[C@@H](C)O2)/C=C/C=C/C[C@@H](C)OC(=O)C[C@H]1OC(C)=O | -17%

Set 3
Target: D(4) dopamine receptor (DRD4, Homo sapiens, UniProt P21917)
Sequence of UniProt P21917 (whole entry, looked up): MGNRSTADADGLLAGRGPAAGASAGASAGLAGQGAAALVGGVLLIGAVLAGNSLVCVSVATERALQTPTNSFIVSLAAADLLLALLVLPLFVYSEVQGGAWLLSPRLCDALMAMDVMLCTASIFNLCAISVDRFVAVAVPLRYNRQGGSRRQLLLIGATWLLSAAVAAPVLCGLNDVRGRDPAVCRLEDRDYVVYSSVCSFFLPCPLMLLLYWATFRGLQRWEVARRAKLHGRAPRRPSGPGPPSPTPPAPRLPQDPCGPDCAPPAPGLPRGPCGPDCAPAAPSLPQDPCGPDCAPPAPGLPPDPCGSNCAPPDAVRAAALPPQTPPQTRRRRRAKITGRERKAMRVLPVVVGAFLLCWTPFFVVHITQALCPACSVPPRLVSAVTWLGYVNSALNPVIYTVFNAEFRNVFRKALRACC
Observed: ligand displacement
Concentration: 10 µM
Structure (SMILES) | inhibition
CCC(=NO)C(C)=Cc1ccc(F)c(C)c1 | 18.6%
Cc1ccc(-c2cnc([C@@]3(O)CC[C@H](C(=O)O)C(C)(C)C3)s2)cc1Nc1cccc(C(F)(F)F)n1 | -9.54%
CN1CCN(c2cnc3c(C4CCN(C(=O)c5ccc(OC(F)(F)F)cc5N)CC4)ncnc3c2)CC1 | 12.7%
O=C(NCCCC1CCCCC1)c1ccc(CNC(=O)c2cnn(-c3ccccc3)c2C(F)(F)F)cc1 | 21.7%
c1ccc(C2CCN(c3cnc4c(N5CCOCC5)nccn34)CC2)cc1 | 0.44%
CNC(=N)NCCC[C@H](NC(=O)[C@H](CC(C)C)NC(=O)NNC(=O)[C@H](Cc1ccccc1)NC(=O)[C@H](CO)NC(=O)[C@H](CC(N)=O)NC(=O)[C@@H](Cc1ccncc1)NC(=O)[C@H](N)Cc1ccc(O)cc1)C(=O)N[C@@H](Cc1ccccc1)C(N)=O | -13.5%
C[C@@H]1CN(c2cc(-c3n[nH]c4ccc(OC5(C)CC5)cc34)ncn2)C[C@H](C)O1 | -4.87%
NC(=O)c1ccc2nc(-c3ccc(C4(N)CCC4)cc3)c(-c3ccccc3)n2n1 | 7.35%
O=S(=O)(NC1CCC(c2cc(F)ccc2F)(S(=O)(=O)c2ccc(Cl)cc2)CC1)C(F)(F)F (centres unmarked) | 20.1%
Cn1nc(C(=O)NCc2ccc(C(=O)O)cc2)cc1-c1ccc2[nH]ccc2c1 | -8.91%
Cc1ncc(-c2cc(Cl)ccc2F)cc1-n1c(=O)n(CC(N)=O)c2ccccc21 | -1.38%
CC[C@H](CC(=O)O)n1c(=O)c2ncccc2n(Cc2cn(C)c3cc(C)cc(C)c23)c1=O | -1.4%
CO[C@H]1CC[C@H](CNc2ccc(S(=O)(=O)NC(=O)c3ccc(N4CCN(CC5=C(c6ccc(Cl)cc6)CC(C)(C)CC5)CC4)cc3Oc3cnc4[nH]ccc4c3)cc2[N+](=O)[O-])CC1 | -4.72%
Cc1ccccc1Oc1cc(-n2c(=O)cc(C(F)(F)F)[nH]c2=O)c2ccccc2c1Cl | 9.05%
O=C1NC(c2ccccn2)Sc2ccccc21 (centres unmarked) | 7.31%

Set 4
Compound: O=C(Nc1cnn(-c2csc(C(=O)NC3COC3)c2)c1)Nc1c(F)cccc1Cl
Observed: enzyme activity
Concentration: 5 µM
Relative to: untreated control
target | remaining activity [%]
CSF1R (Homo sapiens, UniProt P07333) | 97.4
ERN2 (Homo sapiens, UniProt Q76MJ5) | 98.5
STK26 (Homo sapiens, UniProt Q9P289) | 69.7
Cyclin-dependent kinase 2, with cyclin A1 (CDK2, Homo sapiens, UniProt P24941) | 91.1
BLK (Homo sapiens, UniProt P51451) | 95.5
MAPK11 (Homo sapiens, UniProt Q15759) | 88.8
WNK2 (Homo sapiens, UniProt Q9Y3S1) | 88.7
